Earlier results that unrelated publications cite.
Each numbered part shows a few of the values that one paper quotes. ± marks the error that the study gave.
Chain of UniProt P42336 (whole entry, unmodified, looked up): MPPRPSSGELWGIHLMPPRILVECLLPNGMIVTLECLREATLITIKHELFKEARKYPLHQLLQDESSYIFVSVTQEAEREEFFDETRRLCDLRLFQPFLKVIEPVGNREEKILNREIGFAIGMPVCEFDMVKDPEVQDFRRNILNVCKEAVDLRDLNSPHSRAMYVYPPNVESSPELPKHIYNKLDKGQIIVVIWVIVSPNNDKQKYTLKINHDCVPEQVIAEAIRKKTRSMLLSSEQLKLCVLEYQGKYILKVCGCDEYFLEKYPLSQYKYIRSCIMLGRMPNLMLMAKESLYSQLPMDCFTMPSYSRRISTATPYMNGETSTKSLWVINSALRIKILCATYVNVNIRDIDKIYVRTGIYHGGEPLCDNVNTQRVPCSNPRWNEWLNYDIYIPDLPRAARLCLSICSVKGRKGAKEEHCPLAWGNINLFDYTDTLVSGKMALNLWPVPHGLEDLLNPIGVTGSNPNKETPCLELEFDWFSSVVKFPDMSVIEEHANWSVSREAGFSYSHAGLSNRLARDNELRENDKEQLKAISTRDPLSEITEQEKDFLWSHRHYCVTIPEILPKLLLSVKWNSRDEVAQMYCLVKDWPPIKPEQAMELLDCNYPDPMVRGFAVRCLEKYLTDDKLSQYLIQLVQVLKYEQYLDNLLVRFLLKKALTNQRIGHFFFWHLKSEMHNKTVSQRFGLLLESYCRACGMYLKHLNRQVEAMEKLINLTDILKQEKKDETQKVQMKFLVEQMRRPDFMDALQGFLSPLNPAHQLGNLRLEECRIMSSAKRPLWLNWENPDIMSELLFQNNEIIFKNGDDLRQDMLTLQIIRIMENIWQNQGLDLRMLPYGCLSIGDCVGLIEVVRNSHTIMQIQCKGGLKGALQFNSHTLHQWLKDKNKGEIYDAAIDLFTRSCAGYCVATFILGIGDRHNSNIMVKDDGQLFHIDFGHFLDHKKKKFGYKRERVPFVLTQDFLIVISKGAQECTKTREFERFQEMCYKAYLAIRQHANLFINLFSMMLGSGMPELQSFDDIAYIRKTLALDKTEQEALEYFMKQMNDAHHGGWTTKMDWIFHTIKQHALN
Chain of UniProt Q8VQF6 (whole entry, looked up): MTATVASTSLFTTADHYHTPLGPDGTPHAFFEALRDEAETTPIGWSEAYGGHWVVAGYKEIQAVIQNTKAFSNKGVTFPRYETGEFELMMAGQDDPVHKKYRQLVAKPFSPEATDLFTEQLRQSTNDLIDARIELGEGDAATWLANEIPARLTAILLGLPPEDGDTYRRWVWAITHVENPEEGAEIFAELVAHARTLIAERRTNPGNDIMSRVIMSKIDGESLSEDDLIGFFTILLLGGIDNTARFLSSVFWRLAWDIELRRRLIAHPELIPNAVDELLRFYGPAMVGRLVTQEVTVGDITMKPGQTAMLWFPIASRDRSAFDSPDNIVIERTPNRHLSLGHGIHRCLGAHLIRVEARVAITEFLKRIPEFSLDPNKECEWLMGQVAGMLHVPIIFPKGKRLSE

Set 1
Target: HLA class I histocompatibility antigen, C alpha chain, allele C*04:01 (Homo sapiens, UniProt P10321)
Effect on: peptide-MHC binding
Form: peptide
Molecule | IC50 [µM]
MTMSYLSTR | > 5
RYNCKCCWF | 20
NRDVSFQDL | 20
RYSHWTKL | > 20
REMINHYQV | > 5
KELGVHMSL | > 5
MRYFIGQPL | > 5
GSSDFQVHFLK | > 20
FPYTGDPPY | > 5
RYAYTSVEF | 20
KAIGTVLV | 20
FYFNWNTPI | 0.664
KMFNRASYF | 0.848
MAWERGPAL | > 5
VPIAWAAA | > 20
FRDRGQHVL | 20
YYNAFHWAI | 20
KVADVDLAVPV | > 20
FMYEGDTPL | > 5
LVTMGTGTFGR | > 20
YSLEYFQFV | 20
RVYAHVRSV | > 5
YYWPRPRRY | 20
YTDKIAMSY | 20
ITLFPSYQL | > 5

Mixed results
D(4) dopamine receptor: D(4) dopamine receptor (Rattus norvegicus, UniProt P30729)
Chain of UniProt P30729 (whole entry, looked up): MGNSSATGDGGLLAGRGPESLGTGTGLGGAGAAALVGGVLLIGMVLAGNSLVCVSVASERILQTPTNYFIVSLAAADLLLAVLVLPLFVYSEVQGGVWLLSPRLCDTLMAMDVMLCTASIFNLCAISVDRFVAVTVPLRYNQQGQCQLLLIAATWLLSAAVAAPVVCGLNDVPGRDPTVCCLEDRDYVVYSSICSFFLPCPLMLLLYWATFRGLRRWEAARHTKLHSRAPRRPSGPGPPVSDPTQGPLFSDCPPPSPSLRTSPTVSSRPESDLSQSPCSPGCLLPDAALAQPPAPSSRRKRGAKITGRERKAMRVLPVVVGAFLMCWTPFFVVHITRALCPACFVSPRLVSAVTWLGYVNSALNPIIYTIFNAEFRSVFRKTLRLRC
SMILES | target or system | assay | test system | setting | endpoint | result
Nc1ncc(-c2nc(N3CCOCC3)nc(N3CCOCC3)n2)c(C(F)F)n1 | PIK3CA (Homo sapiens, UniProt P42336, H1047L) | KinomeScan competition binding |  | 10 µM | remaining binding | 0%
CO[C@@H](C)Cn1c(=O)n(C)c2cnc3ccc(-c4cncc(C(C)(C)O)c4)cc3c21 |  |  | human cancer patients, CRPC | added: enzalutamide | maximum tolerated dose | 200 mg twice daily
COc1cc2c3c(n(CCCNCCO)c(=O)c2cc1OC)-c1cc2c(cc1C3=O)OCO2 |  |  | dog | mean, same time points | tumour-to-plasma concentration ratio | ≥ 100
CC(C)Oc1cccnc1N(C)C1CCN(Cc2ccc(I)cc2)CC1 | D(4) dopamine receptor | binding |  |  | Ki | 0.00027 ± 0.0001 µM
NC1CCCCC1N.O=C([O-])C(=O)[O-].[Pt+2] (stereo not drawn) |  | measured: free platinum | mouse, plasma ultrafiltrate | intravenous, 8.34 mg Pt/kg | Vd | 0.416 L/kg
C[C@H](CCCC(C)(C)O)[C@H]1CC[C@H]2[C@@H]3CC=C4C[C@@H](O)CC[C@]4(C)[C@H]3CC[C@]12C | ORP1 | binding |  |  | Kd | 3.9 µM
OC[C@H]1OC(O)[C@H]([18F])[C@@H](O)[C@@H]1O (stereo partly drawn) |  |  | rat | intranasal, 30 min | dose swallowed | ~50%
Nc1ncnc2c1ncn2[C@@H]1O[C@H](COS(N)(=O)=O)[C@@H](O)[C@H]1O | NCI-60 cancer cell lines | cell growth |  |  | GI50 | 0.0018 µM
CC(C)C[C@H](NC(=O)CNC(=O)c1cc(Cl)ccc1Cl)B(O)O |  | population PK estimate |  |  | absorption rate constant | 0.34 h⁻¹
COc1cc2c(Oc3ccc4[nH]c(C)cc4c3F)ccnc2cc1OCC1(N)CC1 |  |  | ICR mice | 22 days | LD50 | 983 mg/kg
O=C(O)C(F)(F)C(F)(F)C(F)(F)C(F)(F)C(F)(F)C(F)(F)C(F)(F)F |  |  | human liver spheroids |  | top non-cytotoxic concentration | 20 µM
CCN1CCN(Cc2ccc(Nc3ncc(F)c(-c4cc(F)c5nc(C)n(C(C)C)c5c4)n3)nc2)CC1 |  |  | human |  | maximum tolerated dose | 200 mg twice daily
CN[C@@H](C)C(=O)c1ccccc1 |  | stimulus generalization | rat trained on S(-)-methcathinone |  | ED50 | 0.11 mg/kg
CC12CCC(CC1)C(C)(C)O2 | 1,8-cineole 2-endo-monooxygenase (cinA, Citrobacter braakii, UniProt Q8VQF6) |  |  |  | Kd | 0.7 µM
O=S(=O)(O)C(F)(F)C(F)(F)C(F)(F)C(F)(F)F |  |  | human liver spheroids |  | top non-cytotoxic concentration | 100 µM
C[C@@H]1O[C@@H](O[C@H]2[C@H](Oc3cc(O)c4c(=O)cc(-c5ccc(O)cc5)oc4c3)O[C@H](CO)[C@@H](O)[C@@H]2O)[C@H](O)[C@H](O)[C@H]1O | 3CL protease | enzyme activity, inhibitor |  |  | IC50 | 27 µM
COc1cc(C[C@H]2C(=O)OC[C@@H]2Cc2ccc(OC)c(OC)c2)ccc1O | influenza virus | viral replication, plaque reduction |  |  | IC50 | 74 µM
N.N.[Cl][Pt][Cl] |  |  | cervical cancer patients | dose not given, 3 years, randomized phase II, without triapine, added: radiation | progression-free survival | 77%
c1ccc2c(c1)Cc1ccccc1-2 |  | substrate | human liver microsomes |  | Vmax | 1.36 nmol/min/mg
CCOC(=O)C1=C[C@@H](OC(CC)CC)[C@H](NC(C)=O)[C@@H](N)C1 |  |  | rats | intravenous, 10 mg/kg | clearance | 30 mL/min/kg
c1ccc(-c2ncc(CN3CCN(c4ncccn4)CC3)[nH]2)cc1 | D(4) dopamine receptor | binding |  |  | Ki | 0.0003 ± 4e-05 µM
COCCNCc1ccc(-c2cc3nccc(Oc4ccc(NC(=S)NC(=O)Cc5ccc(F)cc5)cc4F)c3s2)nc1 |  |  | human | concentration not given | time to treatment failure | 1 month
COc1ccc(-c2cc(=O)c3c(O)c(OC)c(O[C@@H]4O[C@H](CO[C@@H]5O[C@@H](C)[C@H](O)[C@@H](O)[C@H]5O)[C@@H](O)[C@H](O)[C@H]4O)cc3o2)cc1 | 3CL protease | enzyme activity, inhibitor |  |  | IC50 | 38 µM
Oc1ccc(-c2ccc(Cl)cc2)cc1 |  |  | rat liver | 1 µM | glucuronidation rate | 36 pmol/min/mg protein
C1=Cc2cccc3cccc1c23 |  | substrate | human liver microsomes |  | Vmax | 0.241 nmol/min/mg
Cn1cc2cc(C(F)(F)c3nnc4ccc(-c5cnn(C6CC6)c5)nn34)c(F)cc2n1 |  |  | human, NSCLC patients | dose not given, phase II | median progression-free survival | 14.1 months

A few entries again (set 1):
Molecule | IC50 [µM]
GSSDFQVHFLK | > 20
FPYTGDPPY | > 5
RYAYTSVEF | 20
